# Experimental data pooled from the literature.
# Each line is one published result; not all experiments were run side by side. ± gives the spread as reported.
# Route: intravenous
SMILES,technique,species,medium,dose,time,together with,tissue uptake
COc1ccc(Nc2nc(Nc3ccc(OCCOCC[18F])cc3)ncc2Br)cc1,,"ICR mice, S180 tumour-bearing",lung,370 kBq,60 min,,2.61 ± 0.2 %ID/g
Cc1cc(C)n(CCN(CCN)CCCCCCNC(=O)[C@@H](N)Cc2c[nH]c3ccccc23)n1.[99Tc+].[C-]#[O+].[C-]#[O+].[C-]#[O+],,"BALB/c nude mice, A549 xenograft",tumor,,4 h,,0.56 ± 0.05 %IA/g
CCCC[C@H](NC(=O)CNC(=O)CNC(=O)[C@H](CCCCNC(=O)[C@H](CC(=O)O)NC(=O)C(C)c1ccc(CC(C)C)cc1)NC(=O)CN1CCN(CC(=O)O)CCN(CC(=O)O)CCN(CC(=O)O)CC1)C(=O)N[C@H]1CC(=O)NCCCC[C@@H](C(N)=O)NC(=O)[C@H](Cc2c[nH]c3ccccc23)NC(=O)[C@H](CCCNC(=N)N)NC(=O)[C@@H](Cc2ccccc2)NC(=O)[C@H](Cc2c[nH]cn2)NC1=O (some centres unmarked) [lutetium-177 labelled],,"C57 mice, tumour-bearing",spleen,0.037 MBq,4 h,,0.68 ± 0.21 %ID/g
O=C(NCC1OC2CCC=CCCC2O1)c1ccc([18F])nc1 (centres unmarked),,healthy female BALB/c nude mice,lungs,7.4 MBq per mouse,60 min,,1.4 ± 0.1 %ID/g
CC(C)C[C@H](NC(=O)[C@@H](CCCCNC(=O)[C@@H](Cc1ccccc1)NC(=O)CCCCCCCNC(=O)CN1CCN(CC(=O)O)CCN(CC(=O)O)CCN(CC(=O)O)CC1)NC(=O)[C@H](Cc1ccc(O)cc1)NC(=O)[C@H](CO)NC(=O)[C@H](Cc1c[nH]c2ccccc12)NC(=O)[C@H](Cc1c[nH]cn1)NC(=O)[C@@H]1CCC(=O)N1)C(=O)N[C@@H](CCCNC(=N)N)C(=O)N1CCC[C@H]1C(=O)NCC(N)=O [indium-111 labelled],,"male athymic nude mice, DU-145 prostate cancer xenograft",liver,dose not given,1 h,unlabeled blocking peptide 10 µg,0.86 ± 0.22 %ID/g
CCCC[C@H](NC(=O)COCCOCCNC(=O)CN1CCN(CC(=O)O)CCN(CC(=O)O)CC1)C(=O)N[C@H]1CC(=O)NCCCC[C@@H](C(N)=O)NC(=O)[C@H](Cc2c[nH]c3ccccc23)NC(=O)[C@H](CCCNC(=N)N)NC(=O)[C@@H](Cc2ccccc2)NC(=O)[C@H](Cc2c[nH]cn2)NC1=O [fluorine-18 labelled],,C57 mice B16-F10 melanoma,kidneys,0.37 MBq,1 h,,2.07 ± 0.43 %ID/g
O=C([O-])CN1CCN(CC(=O)[O-])CCN(CC(=O)NC[C@H]2CC[C@H](C(=O)N[C@H](Cc3cnc4ccccc4c3)C(=O)NCCCC[C@H](NC(=O)N[C@@H](CCC(=O)O)C(=O)O)C(=O)O)CC2)CCN(CC(=O)[O-])CC1.[64Cu+2],ex vivo gamma counting,22Rv1 tumour-bearing mice,kidney,0.74 MBq,24 h post-injection,,9.86 %ID/g
Cc1cc(C)n(CCN(CCN)CCCCCCNC(=O)[C@@H](N)Cc2c[nH]cn2)n1.[99Tc+].[C-]#[O+].[C-]#[O+].[C-]#[O+],,BALB/c nude mice A549 xenograft,blood,,15 min,,2.8 ± 1 %ID/g

# A few entries again:
SMILES,technique,species,medium,dose,time,together with,tissue uptake
CC(C)C[C@H](NC(=O)[C@@H](CCCCNC(=O)[C@@H](Cc1ccccc1)NC(=O)CCCCCCCNC(=O)CN1CCN(CC(=O)O)CCN(CC(=O)O)CCN(CC(=O)O)CC1)NC(=O)[C@H](Cc1ccc(O)cc1)NC(=O)[C@H](CO)NC(=O)[C@H](Cc1c[nH]c2ccccc12)NC(=O)[C@H](Cc1c[nH]cn1)NC(=O)[C@@H]1CCC(=O)N1)C(=O)N[C@@H](CCCNC(=N)N)C(=O)N1CCC[C@H]1C(=O)NCC(N)=O [indium-111 labelled],,"male athymic nude mice, DU-145 prostate cancer xenograft",liver,dose not given,1 h,unlabeled blocking peptide 10 µg,0.86 ± 0.22 %ID/g
